# Measurements pooled from the literature.
# ± marks the error that the study gave.
# Target: Cytochrome P450 1A2 (CYP1A2, Homo sapiens, UniProt P05177)
# Sequence of UniProt P05177 (whole entry, looked up): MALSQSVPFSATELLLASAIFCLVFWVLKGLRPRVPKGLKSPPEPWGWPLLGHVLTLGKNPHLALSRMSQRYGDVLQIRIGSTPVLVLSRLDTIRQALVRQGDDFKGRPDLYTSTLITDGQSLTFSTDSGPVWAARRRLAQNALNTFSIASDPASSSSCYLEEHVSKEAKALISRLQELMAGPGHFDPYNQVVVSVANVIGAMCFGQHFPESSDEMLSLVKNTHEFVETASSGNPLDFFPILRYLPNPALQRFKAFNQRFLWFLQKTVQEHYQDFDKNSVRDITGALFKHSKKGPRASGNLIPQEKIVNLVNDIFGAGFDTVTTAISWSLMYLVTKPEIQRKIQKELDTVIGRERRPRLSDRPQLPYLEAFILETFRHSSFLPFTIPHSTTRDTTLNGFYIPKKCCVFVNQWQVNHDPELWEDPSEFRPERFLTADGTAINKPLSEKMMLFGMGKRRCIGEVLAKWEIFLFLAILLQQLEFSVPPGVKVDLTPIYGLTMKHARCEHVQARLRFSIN
SMILES,test,system,setting,how to read,quantity,value
NC(=S)NN=Cc1ncccc1N,"enzyme activity, inhibitor","human, liver microsomes","6 µM, 15 min, pH 7.4",,inhibition,23%
CCn1c(C(=O)N(C2CC2)C2CC2)cc2c3c(ncn3C)c(Nc3cc(C)n(C)n3)nc21,time-dependent inhibitor,human liver microsomes,"pH 7.4, with: phenacetin 450 µM",,KI,2.9 µM
COc1c2ccoc2c(OC)c2oc(=O)ccc12,,recombinant microsomes,"8 µM, after 20 h dialysis at 4 °C, with: methoxyresorufin",relative to: uninhibited dialysed control,remaining activity,39 ± 6%
Cc1noc(C)c1Cn1cc(N2C(=O)N(Cc3cccc(O)c3)C(C)(C)C2=O)cn1,"enzyme activity, inhibitor, fluorescence",Sf9,10 µM,,inhibition,1%
COc1cc(CCc2cnc3ccn(S(=O)(=O)c4c[nH]cn4)c3n2)cc(OC)c1,"enzyme activity, inhibitor","human, liver microsomes","10 µM, 20 min, pH 7.4",,inhibition,60%
COc1cc(Sc2c(-c3cccnc3)[nH]c3ccccc23)cc(OC)c1OC,"enzyme activity, inhibitor, fluorescence",,"1 µM, 15 min, pH 7.4",,inhibition,< 50%
C#Cc1ccc2c(C)c(-c3ccccc3)c(=O)oc2c1,"enzyme activity, inhibitor",,pH 7.6,,kinact,0.00167 s⁻¹
COc1cc(CCc2cnc3ccn(S(=O)(=O)c4cn(C)cn4)c3n2)cc(OC)c1,"enzyme activity, inhibitor","human, liver microsomes","10 µM, 20 min, pH 7.4",,inhibition,32%
C#Cc1ccc2cc(-c3ccccc3)c(=O)oc2c1,"enzyme activity, inhibitor",,pH 7.6,,kinact,0.0005 s⁻¹
CC1=N[C@]2(C(=O)CO)[C@@H](C[C@H]3[C@@H]4C[C@@H](O)C5=CC(=O)C=C[C@]5(C)[C@H]4[C@@H](O)C[C@@]32C)O1,,pooled human liver microsomes,"30 min preincubation, with: NADPH",,IC50,> 50 µM
C#Cc1ccc2c(C)c(C)c(=O)oc2c1C,"enzyme activity, inhibitor",,pH 7.6,,kinact,0.00733 s⁻¹
Cc1cc2c(ccc3c(=O)cc(-c4ccccc4)oc32)o1,MROD activity,,with: methoxyresorufin,,half-life,1.65 min
COc1cc(Sc2c(-n3ccnc3)[nH]c3ccccc23)cc(OC)c1OC,"enzyme activity, inhibitor, fluorescence",,"1 µM, 15 min, pH 7.4",,inhibition,< 50%
C#Cc1ccc2c(C(F)(F)F)cc(=O)oc2c1,"enzyme activity, inhibitor",,pH 7.6,,kinact,0.00517 s⁻¹

# For quick reference, copied from above:
SMILES,test,system,setting,how to read,quantity,value
COc1cc(Sc2c(-n3ccnc3)[nH]c3ccccc23)cc(OC)c1OC,"enzyme activity, inhibitor, fluorescence",,"1 µM, 15 min, pH 7.4",,inhibition,< 50%
Cc1cc2c(ccc3c(=O)cc(-c4ccccc4)oc32)o1,MROD activity,,with: methoxyresorufin,,half-life,1.65 min
